Assay results collected from several papers.
Protocols differ between the studies behind these lines.
Cell line: MDA-MB-231
Effect on: cell growth or viability

SMILES	test	conditions	quantity	value
C=CCOc1ccc2c(C)c(CC)c(=O)oc2c1C	MTT	500 µg/mL	viability	5.28%
O=C(Nc1ccc(Cl)cc1)Nc1ccc(Oc2nc3ccccc3n3cnnc23)cc1	MTT	6.25 µM, 24 h	viability	100%
NCCC(=O)Nc1ccccc1/N=c1\cc(-c2ccc3oc(N)nc3c2)oc2ccccc12	CCK-8	1 µM	inhibition	29.3%
CCCOc1ccc2c(C)c(CC)c(=O)oc2c1C	MTT	250 µg/mL	viability	35.4%
O=C(Nc1ccccc1)Nc1ccc(Oc2nc3ccccc3n3cnnc23)cc1	MTT	1.56 µM, 24 h	viability	100%
NCC(=O)Nc1ccccc1/N=c1\cc(-c2ccc3c(c2)OCO3)oc2c(N)cccc12	CCK-8	1 µM	inhibition	-8.56%
N#CC(C(=O)Nc1cccc(C(F)(F)F)c1)=C1Sc2nc3ccc(S(=O)(=O)N4CCCC4)cc3nc2S1	MTT	6.25 µM, 24 h	viability	68.3%
Nc1nc2ccc(-c3c/c(=N\c4ccccc4NC(=O)C4CCNC4)c4ccccc4o3)cc2o1 (centres unmarked)	CCK-8	1 µM	inhibition	68.7%
COc1cccc2c1C(=O)c1c(O)c3c(c(O)c1C2=O)C[C@@](O)(C(=O)CO)C[C@@H]3O[C@H]1C[C@H](N)[C@H](O)[C@H](C)O1	MTT	48 h	EC50	5.65 µM
Cc1c(Cc2ccccc2)c(=O)oc2c(C)c(OCC(=O)NN=Cc3ccc(Cl)cc3)ccc12	MTT	125 µg/mL	viability	30.8%
CS(=O)(=O)NCCC(=O)Nc1ccccc1/N=c1\cc(-c2ccc3nc(N)oc3c2)oc2ccccc12	CCK-8	1 µM	inhibition	-6.88%
O=C1CCCCC1=C1Sc2nc3ccc(S(=O)(=O)N4CCCC4)cc3nc2S1	MTT	1.56 µM, 24 h	viability	88.6%
CCOc1ccc2c(C)c(CC)c(=O)oc2c1C	MTT	62.5 µg/mL	viability	96.1%
COc1cccc(NC(=O)Nc2ccc(Oc3nc4ccccc4n4cnnc34)cc2)c1	MTT	12.5 µM, 24 h	viability	56.8%
CCc1c(C)c2ccc(OCC(=O)NN=Cc3ccc([N+](=O)[O-])cc3)cc2oc1=O	MTT	125 µg/mL	viability	23.2%
COc1ccc2/c(=N/c3ccccc3NC(=O)[C@@H](N)CO)cc(-c3ccc4c(c3)OCCO4)oc2c1	CCK-8	1 µM	inhibition	6.42%
CNC(=O)c1cc(Oc2ccc(NC(=O)Nc3ccc(Cl)c(C(F)(F)F)c3)cc2)ccn1	MTT	1.56 µM, 24 h	viability	88.5%
Cc1c(Cc2ccccc2)c(=O)oc2c(C)c(OCC(=O)NN=Cc3ccc([N+](=O)[O-])cc3)ccc12	MTT	250 µg/mL	viability	13.9%
CC(C)(C)[C@H](N)C(=O)Nc1ccccc1/N=c1\cc(-c2ccc3c(c2)OCCO3)oc2cc(F)ccc12	CCK-8	1 µM	inhibition	-0.47%
O=C(Nc1ccc(Oc2nc3ccccc3n3cnnc23)cc1)Nc1cccc(Cl)c1	MTT	6.25 µM, 24 h	viability	82.5%
COc1cccc2c1C(=O)c1c(O)c3c(c(O)c1C2=O)C[C@@](O)(C(=O)CO)C[C@@H]3O[C@H]1C[C@H](N)[C@H](O)[C@H](C)O1	MTT	75 h	IC50	2.12 µM
NCC(=O)Nc1ccccc1/N=c1\cc(-c2ccc3c(c2)OCCO3)oc2ccccc12	CCK-8	1 µM	inhibition	-9.47%
CCNC(=S)NNC(=O)COc1ccc2c(C)c(CC)c(=O)oc2c1C	MTT	250 µg/mL	viability	22.9%
CCOC(=O)C(C(C)=O)=C1Sc2nc3ccc(S(=O)(=O)N4CCCC4)cc3nc2S1	MTT	1.56 µM, 24 h	viability	57.5%
COc1ccc2oc(-c3ccc4nc(N)oc4c3)c/c(=N\c3ccccc3NC(=O)CCN)c2c1	CCK-8	1 µM	inhibition	70.7%
CCc1c(C)c2ccc(OCC(=O)NNC(=S)Nc3ccccc3)c(C)c2oc1=O	MTT	62.5 µg/mL	viability	21.1%

Excerpt of the above:
SMILES	test	conditions	quantity	value
N#CC(C(=O)Nc1cccc(C(F)(F)F)c1)=C1Sc2nc3ccc(S(=O)(=O)N4CCCC4)cc3nc2S1	MTT	6.25 µM, 24 h	viability	68.3%
Nc1nc2ccc(-c3c/c(=N\c4ccccc4NC(=O)C4CCNC4)c4ccccc4o3)cc2o1 (centres unmarked)	CCK-8	1 µM	inhibition	68.7%
COc1cccc2c1C(=O)c1c(O)c3c(c(O)c1C2=O)C[C@@](O)(C(=O)CO)C[C@@H]3O[C@H]1C[C@H](N)[C@H](O)[C@H](C)O1	MTT	48 h	EC50	5.65 µM
